Literature values, collected from citations in different studies.
Compare with care: the assays were run in different laboratories. ± gives the spread as reported.

| SMILES | cell line | assay | test system | conditions | IC50 |
| --- | --- | --- | --- | --- | --- |
| COC1=C(OC)[C@H](O)[C@H](C/C=C(\C)CC/C=C(\C)CCC=C(C)C)[C@@H](C)C1=O | Hep3B | cell growth | 10% FBS | 72 h | 0.13 ± 0.02 µM |
| Nc1ncnc2c1ncn2[C@@H]1O[C@H](CO)[C@@H](O)[C@H]1O | HepG2 | mRNA level, down-regulation, item: PCSK9 mRNA |  |  | 18.5 µM |
| COc1ccc(CCN(C)C(=O)/C=C/c2ccc(O)cc2)cc1 | human neutrophils | elastase release |  | together with: fMLF | 13.5 µM |
| C=CC(=O)N1CCC[C@@H](n2nc(-c3ccc(Oc4ccccc4)cc3)c3c(N)ncnc32)C1 | Raji | cell proliferation |  |  | 20.9 µM |
| Nc1nc2[nH]c(CCCc3ccc(C(=O)N[C@@H](CCC(=O)O)C(=O)O)s3)cc2c(=O)[nH]1 | KB | cell growth |  | together with: folic acid 200 nM | > 1 µM |
| Oc1ccc(/C=C/c2cc(O)cc(O)c2)cc1 | 184B5/HER | PGE2 production, inhibitor |  |  | 32.2 µM |
| COC(=O)c1ccc(-n2cc(CCCOS(=O)(=O)c3ccc(C)cc3)nn2)cc1 | hepatoblastoma cells | cell proliferation |  |  | > 50 µM |
| CC(C)(C)c1ccc(S(=O)(=O)NCc2ccc(C(=O)Nc3cccnc3)cc2)cc1 | RCC4 (VHL-deficient) | cell proliferation |  |  | 7.9 µM |
| C[C@@]12CCC[C@@](C)(C(=O)O)[C@H]1CC[C@@]13C[C@@H](CC[C@H]12)[C@@](O)(CO)C3 | neutrophils | superoxide production |  | together with: fMLF | 4 µM |
| O=C(Oc1ccc(-n2cccc2)cc1)[c-]1cccc1.O=C(Oc1ccc(-n2cccc2)cc1)[c-]1cccc1.[Fe+2] | MCF-10A | cell growth |  |  | > 250 µM |
| CC(C)C[C@H]1NC(=O)[C@H](CC(=O)O)NC(=O)CNC(=O)[C@H](CCCNC(=N)N)NC(=O)[C@H](C)NC1=O | WM-115 | cell adhesion, inhibitor |  | together with: immobilized CagL wild type | 2.31 µM |
| CN(C)[C@H]1C[C@@]23CC[C@@]4(O2)C(=CC[C@]2(C)[C@@H](c5ccc6ccncc6c5)CC[C@H]24)C=C3[C@@H](O)[C@@H]1O | HUVEC | cell proliferation |  |  | 0.35 µM |
| NC1=NC2=NC(CCCCCCC(=O)N[C@H](CCC(=O)O)C(=O)O)=CC2C(=O)N1 (stereo partly drawn) | KB | cell proliferation, inhibitor |  |  | 0.0079 ± 0.00072 µM |
| C[C@H](NC(=O)Cc1cc(F)cc(F)c1)C(=O)N[C@H](C(=O)OC(C)(C)C)c1ccccc1 | primary human neurons | amyloid beta 42 formation, item: amyloid beta 42 |  |  | 0.2 µM |
| CC1(C)CC[C@]2(C(=O)O)CC[C@]3(C)C(=CC[C@@H]4[C@@]5(C)CC[C@H](O)C(C)(C)[C@@H]5CC[C@]43C)[C@@H]2C1 | human neutrophils | elastase release |  | together with: fMLF | 0.75 µM |
| Nc1nc2[nH]c(CCCc3ccc(C(=O)N[C@@H](CCC(=O)O)C(=O)O)cc3)cc2c(=O)[nH]1 | CHO PC43-10, human RFC-expressing | cell growth |  |  | 0.649 µM |
| COc1cc(/C=C/C(=O)NCCc2ccc(O)cc2)ccc1O | RAW264.7 | nitric oxide production |  | 24 h, together with: LPS 100 ng/mL | > 50 µM |
| CN(C)CCOc1ccc(-c2oc3ncnc(NCC4SCCS4)c3c2-c2ccccc2)cc1 | ACK1-dependent cell line | cell growth |  |  | 0.005 µM |
| C=C(C)[C@@H](CC=C(C)C)C[C@@]12C[C@@H](CC=C(C)C)C(C)(C)[C@]3(C=CC(C)(C)OC3=C(C(=O)c3ccccc3)C1=O)C2=O | human neutrophils | elastase release |  | together with: fMLF | 0.14 µM |
| COc1ccc(-c2noc(-c3cccs3)c2C(F)(F)F)cc1OC | MCF7 | cell growth |  |  | 2.63 µM |
| COC(=O)c1cc2c(C(F)(F)F)cc(-c3ccccc3)cc2n1O | HeLa | cell growth, SRB |  | 72 h, normoxia | 33.4 ± 1 µM |
| CC[C@H](C)[C@H](N)C(=O)N[C@H](C(=O)NCC(=O)N[C@@H](CC(C)C)C(=O)N[C@@H](CCSC)C(=O)N[C@H](C(=O)NCC(=O)NCC(=O)N[C@H](C(=O)N[C@H](C(=O)N[C@H](C(=O)N[C@@H](C)C(=O)O)[C@@H](C)CC)C(C)C)C(C)C)C(C)C)[C@@H](C)CC | PC-12, differentiated | amyloid-β42 neurotoxicity, inhibitor, item: LDH release |  |  | 20 ± 4 µM |
| Cc1cc(C)n(-c2nc(NN=Cc3c[nH]c4ccccc34)nc(Nc3ccc(Br)cc3)n2)n1 | A549 or SK-BR-3 |  |  |  | ~5 µM |

| SMILES | cell line | assay | test system | conditions | IC50 |
| --- | --- | --- | --- | --- | --- |
| COc1ccc(/C=C\c2cc(OC)c(OC)c(OC)c2)cc1O | MDA-MB-435 | cell proliferation |  |  | 0.0034 ± 0.0006 µM |
| Nc1nc2[nH]c(CCCCCCc3ccc(C(=O)N[C@@H](CCC(=O)O)C(=O)O)cc3)cc2c(=O)[nH]1 | CHO RT16, human FRα-expressing | cell growth |  | together with: folic acid 200 nM | > 1 µM |
| CCn1c(C)c(C(=O)O)c(-c2cccc(N3CCN(c4ccc(NS(=O)(=O)c5ccc(N[C@H](CCN(C)C)CSc6ccccc6)c([N+](=O)[O-])c5)cc4)CC3)c2)c1-c1ccc(Cl)cc1 | multiple cancer cell lines | cell growth |  |  | ~0.01 µM |
| Cc1cc2ccc3c(c2cc1O)CCC(=O)C3(C)C | neutrophils | superoxide production |  | together with: fMLF | 4.4 µM |
| C=C1C(=O)O[C@H]2[C@H]1CC/C(C)=C/CC[C@@]1(C)O[C@@H]21 | DU-145 | cell growth, inhibitor |  |  | 8.9 ± 4.6 µM |
| COC1=CC(=O)c2cc(-c3ccc(OC)c(O)c3)c3cc(O)c(OC)cc3c2C1=O | human neutrophils | elastase release |  | together with: fMLF | 4.2 µM |
| O=c1c2ccccc2[se]n1-c1ccccc1 | guinea pig alveolar macrophages | superoxide generation |  |  | 20 µM |
| C/C(=C/Cc1c(O)cc2oc(C)cc(=O)c2c1O)CO | neutrophils | superoxide production |  | together with: fMLF | 13.4 µM |
| CC(=O)Oc1ccccc1C(=O)O | rat brain microglia | thromboxane B2 generation |  | together with: Escherichia coli LPS | 3.12 to 10 µM |
| O=c1[nH]cc(F)c(=O)[nH]1 | A549, HeLa, CFPAC-1, SW-620 | cell viability, MTT |  | range over cell lines | 0.08 to 8.81 µM |
| Cc1ccc(C(C)C)cc1.F[P-](F)(F)(F)(F)F.NCCN.[Cl][Ru+] | CH1 | cell growth |  |  | 4.4 µM |
| CCOC(=O)N1CCN(/[N+]([O-])=N/Oc2ccc([N+](=O)[O-])cc2[N+](=O)[O-])CC1 | HL-60 | cell growth |  |  | 0.2 to 0.5 µM |
| C=C(CO)[C@@H]1CC[C@]2(C)CC[C@]3(C)[C@H](CC[C@@H]4[C@@](C)(CC(=O)O)[C@H](C(C)(C)C(=O)O)CC[C@]43C)[C@@H]12 | neutrophils | superoxide production |  | together with: fMLF | 0.12 µM |
| CC(C)(O)c1cc2nn(CCS(C)(=O)=O)cc2cc1NC(=O)c1cccc(C(F)(F)F)n1 | mouse splenic cells | TNF-alpha secretion, inhibitor |  | 24 h, together with: LPS 1 µg/mL | 0.385 µM |
| COc1ccc(N(C)c2nc(C)nc3[nH]ccc23)cc1 | SK-OV-3 MDR-1-6/6, Pgp-expressing | cell growth |  |  | 0.435 ± 0.033 µM |
| Nc1nc2sc(CCCCc3ccc(C(=O)N[C@@H](CCC(=O)O)C(=O)O)cc3)cc2c(=O)[nH]1 | NCI-IGROV1 | cell growth |  | 96 h, together with: folic acid 200 nM | > 1 µM |
| CCc1ccc(/C=C2\SC(=S)NC2=O)cc1 | multiple myeloma cell lines, human | cell growth |  |  | 52 to 90 µM |
| CNC(=N)NCCC[C@H](N)C(=O)O | RAW264.7 | NO production |  | together with: LPS | 25.5 µM |
| CNC1=CC(=O)c2cc(C)ncc2C1=O | 36 cancer cell lines |  |  | mean | 3.5 µM |
| COc1ccc(N(C)c2nc(C)nc3ccn(C)c23)cc1 | MDA-MB-435 | cell growth |  |  | 0.0043 ± 0.0003 µM |
| COc1c2occc2cc2ccc(=O)oc12 | metastatic colon cancer cells | cell growth |  | without photoactivation | 88.5 µM |
| O=C(O)/C=C/c1ccc(O)c(O)c1 | rat bone marrow culture | osteoclastogenesis, inhibitor |  |  | 5.6 µM |
